Measured values collected from several papers.
Lines come from different studies, so protocols differ. Several values in a cell are separate wells, animals, samples, runs or records. Numbers after ± are the reported error.
Chain of UniProt O00311 (whole entry, looked up): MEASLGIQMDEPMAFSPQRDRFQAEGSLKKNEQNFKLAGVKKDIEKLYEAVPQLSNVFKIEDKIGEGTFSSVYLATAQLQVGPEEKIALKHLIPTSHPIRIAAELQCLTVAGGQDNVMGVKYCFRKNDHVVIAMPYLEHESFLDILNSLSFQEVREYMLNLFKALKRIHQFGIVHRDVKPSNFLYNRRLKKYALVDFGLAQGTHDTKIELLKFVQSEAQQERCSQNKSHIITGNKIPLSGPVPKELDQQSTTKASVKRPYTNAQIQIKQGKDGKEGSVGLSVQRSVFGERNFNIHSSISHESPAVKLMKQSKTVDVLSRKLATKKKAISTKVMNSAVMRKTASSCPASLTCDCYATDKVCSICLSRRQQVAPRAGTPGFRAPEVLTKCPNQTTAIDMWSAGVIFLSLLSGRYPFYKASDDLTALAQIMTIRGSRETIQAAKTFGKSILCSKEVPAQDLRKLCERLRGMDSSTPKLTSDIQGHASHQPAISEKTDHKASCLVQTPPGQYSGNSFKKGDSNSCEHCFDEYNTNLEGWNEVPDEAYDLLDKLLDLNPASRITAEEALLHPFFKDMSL

Compound	tested on	test	system	setting	scale	measurement	result
Cc1cccc(Cn2nc(C3CC3)c3c(NC(=O)c4cnc5cc(OCCN6CCN(C)CC6)ccn45)cccc32)n1		item: Hypokalemia	human pancreatic ductal adenocarcinoma	oral, dose not given, all-causality		adverse events incidence	14.8%
CCc1ccc(CC/C=C/c2ccc3c(c2)C(=O)CC3)cc1			Sprague-Dawley rat, male	oral, 450 mg/kg/day, 14 days		Fibrinogen	3.22 g/L
N#C/N=C1\SCCN1Cc1ccc(Cl)nc1			soil	0 days, nominal 10		recovery	52%
Clc1ccc(-c2ccccc2)cc1			female Sprague-Dawley rats, serum	inhalation, 23 µg/rat, 0 h after exposure		sodium	111 ± 22 mmol/L
Cn1cncc1-c1c(F)cncc1NC(=O)c1c(N)nn2cc(F)cnc12			human patients	oral, 180 mg once daily, 2 weeks on 1 week off		patients grade ≥3 Neutrophil count decrease	0%
CNC(=O)c1cc(Cl)c(OC(C)(C)C(=O)O)cc1OC[C@@H](O)CN1CCC2(CC1)Cc1cc(Cl)ccc1O2			human	oral		absorption rate constant	0.3 h⁻¹
CC(C)[C@@H]1NC(=O)CNC(=O)[C@H](CC(N)=O)NC(=O)[C@H](CCCNC(=N)N)NC(=O)[C@H](Cc2ccc(O)cc2)NC(=O)[C@H](C(C)C)NC(=O)[C@@H](NC(=O)[C@@H](NC(=O)[C@H](CC(N)=O)NC(=O)[C@H](Cc2c[nH]c3ccccc23)NC(=O)[C@H](C)NC(=O)[C@H](Cc2ccccc2)NC(=O)CN)C(C)C)CSSC[C@@H](C(=O)N[C@@H](Cc2cnc[nH]2)C(=O)N[C@@H](CCCNC(=N)N)C(=O)N[C@@H](CCCNC(=N)N)C(=O)N[C@@H](C)C(=O)N[C@@H](CC(N)=O)C(N)=O)NC(=O)[C@H](C(C)C)NC(=O)[C@H](CCCNC(=N)N)NC1=O			mouse mammary gland homogenate 50 mg/mL	8.00 h, 37 °C		peptide remaining	45.8% and 50.1% and 40.4%
C[C@@H](NC(=O)N1C(=O)[C@H](Cc2ccnc(N)c2)[C@H]1C(=O)O)C1CCCCC1			healthy Chinese adults	continuous intravenous infusion, 2.25 mg/kg/h, 5.0 days		related decreased WBC	0%
CC[C@H](C)[C@H](NC(=O)[C@H](Cc1ccccc1)NC(=O)[C@H](CCC(=O)O)NC(=O)[C@H](CCCNC(=N)N)NC(=O)[C@H](C)NC(=O)[C@H](C)NC(=O)[C@H](CCC(N)=O)NC(=O)[C@H](CCC(=O)O)NC(=O)[C@H](CCC(=O)O)NC(=O)[C@H](CC(C)C)NC(=O)[C@H](Cc1ccc(O)cc1)NC(=O)[C@H](CO)NC(=O)[C@H](CO)NC(=O)[C@@H](NC(=O)[C@H](CC(=O)O)NC(=O)[C@H](CO)NC(=O)[C@@H](NC(=O)[C@H](Cc1ccccc1)NC(=O)[C@@H](NC(=O)CNC(=O)[C@H](CCC(=O)O)NC(=O)[C@H](C)NC(=O)CCc1cnc[nH]1)[C@@H](C)O)[C@@H](C)O)C(C)C)C(=O)N[C@@H](C)C(=O)N[C@@H](Cc1c[nH]c2ccccc12)C(=O)N[C@@H](CC(C)C)C(=O)N[C@H](C(=O)N[C@@H](CCCNC(=N)N)C(=O)NCC(=O)N[C@@H](CCCNC(=N)N)C(=O)N[C@@H](CCCCNC(=O)COCCOCCNC(=O)COCCOCCNC(=O)CC[C@H](NC(=O)CCCCCCCCCCCCCCCCC(=O)O)C(=O)O)C(=O)NCC(=O)NCC(=O)N[C@@H](CO)C(=O)N[C@@H](CCCCNC(=O)[C@H](CCCCNc1c(NCCCCCN(O)C(=O)CCC(=O)NCCCCCN(O)C(=O)CCC(=O)NCCCCCN(O)C(C)=O)c(=O)c1=O)Nc1c(NCCCCCN(O)C(=O)CCC(=O)NCCCCCN(O)C(=O)CCC(=O)NCCCCCN(O)C(C)=O)c(=O)c1=O)C(=O)O)C(C)C [zirconium-89 labelled]		ex vivo gamma counting	Sprague-Dawley rat, male, blood	intravenous, 1 nmol, 24 h		tissue uptake	0.343 %ID/g and 0.325 %ID/g
C[C@]1(CO)Cc2ncn(-c3ccc(C#N)c(Cl)c3)c2C(=O)O1			healthy European subjects	dose not given, single dose, all doses		drug-related dysgeusia	2.1%
C[C@H]1C[C@@H](N2C(=N)N[C@](C)(c3cccc(NC(=O)c4cccc(C#N)c4)c3Cl)CC2=O)CCO1			Han Wistar rat male	oral, 1000 mg/kg, 7 days		free Cmax	5030 ng/mL
COc1ncccc1-c1cnn2ccc(N3CCN(C(=O)OC(C)C)CC3)nc12			mouse nerve ligation model, brain	oral, 3 mg/kg, 30 min after last dose, repeat dosing day 2		drug concentration	3.9 µM
CC(C)C[C@H](NC(=O)[C@H](CCCCN)NC(=O)OCC1c2ccccc2-c2ccccc21)C(=O)N[C@H](C(=O)N[C@@H](Cc1ccccc1)C(=O)N[C@@H](Cc1ccccc1)C(=O)N[C@@H](CCCCN)C(=O)NCC(=O)N[C@@H](Cc1ccccc1)C(=O)N[C@@H](C)C(=O)N[C@@H](Cc1c[nH]c2ccccc12)C(=O)N[C@@H](CC(N)=O)C(=O)N[C@H](C(=O)N[C@H]1CSSC[C@@H](C(=O)N[C@@H](Cc2c[nH]cn2)C(=O)N[C@@H](CCCNC(=N)N)C(=O)N[C@@H](CCCNC(=N)N)C(=O)N[C@@H](C)C(=O)N[C@@H](CC(N)=O)C(N)=O)NC(=O)[C@H](C(C)C)NC(=O)[C@H](CCCNC(=N)N)NC(=O)[C@H](C(C)C)NC(=O)CNC(=O)[C@H](CC(N)=O)NC(=O)[C@H](CCCNC(=N)N)NC(=O)[C@H](Cc2ccc(O)cc2)NC(=O)[C@H](C(C)C)NC1=O)C(C)C)C(C)C		circular dichroism, item: Parallel	PBS	80 µM, pH 7.4, with: LPS 1 µM		secondary structure content	3.48%
Cn1cc(-c2nc(N[C@@H]3CCCC[C@@H]3N)c(F)c3c2C(=O)NC3)cn1		item: Epistaxis	patients with relapsed or refractory AML	oral, 80 mg twice daily		hemorrhagic adverse events	33%
CCN1[C@@H](C(=O)NC23CCC(C(=O)O)(CC2)CC3)[C@H](c2cccc(Cl)c2F)[C@]2(C(=O)Nc3cc(Cl)ccc32)C12CCCCC2			patients with advanced solid tumours	oral, 100 mg		Ageusia incidence	0%
N[C@@H]1c2ccccc2OC12CCN(c1cnc3c(N4CCCc5ncccc54)n[nH]c3n1)CC2			human	60 mg once daily, cycle 2		left ventricular ejection fraction	45%
O=C(Nc1ccccc1)C1CCN(C(=O)Oc2cccnc2)CC1		adverse event reporting	healthy women	oral, 100 mg, 9 days		subjects with nervous system disorders	92.3%
Clc1ccc2nc(N3CCC(NCCc4cccnc4)CC3)sc2c1	Vero-E6	CellTiter-Glo ATP		concentration not given, 72 h, retest 8-point duplicates	baseline: DMSO 0%, hyamine -100%, more negative, more toxic	cytotoxicity efficacy	-18.1%

Compound	tested on	test	system	setting	scale	measurement	result
COc1cc2c(Oc3ccc4[nH]c(C)cc4c3F)ccnc2cc1OCC1(N)CC1			paediatric refractory sarcoma patients	12 mg		Tinnitus incidence	18.2%
CCCCCCCCCCCCCCCC(=O)N[C@@H](CCC(=O)NCCCC[C@H](NC(=O)[C@H](CC(=O)O)NC(=O)[C@H](CO)NC(=O)[C@@H](NC(=O)[C@H](Cc1ccccc1)NC(=O)[C@@H](NC(=O)CNC(=O)[C@H](CCC(N)=O)NC(=O)[C@H](CO)NC(=O)[C@@H](N)Cc1c[nH]cn1)[C@@H](C)O)[C@@H](C)O)C(=O)N[C@@H](CO)C(=O)N[C@@H](CCC(=O)O)C(=O)N[C@@H](Cc1ccc(O)cc1)C(=O)N[C@@H](CC(C)C)C(=O)N[C@@H](CC(=O)O)C(=O)N[C@@H](CO)C(=O)N[C@@H](CCC(=O)O)C(=O)N[C@@H](CCCNC(=N)N)C(=O)N[C@@H](C)C(=O)N[C@@H](CCCNC(=N)N)C(=O)N[C@@H](CC(=O)O)C(=O)N[C@@H](Cc1ccccc1)C(=O)N[C@H](C(=O)N[C@@H](C)C(=O)N[C@@H](Cc1c[nH]c2ccccc12)C(=O)N[C@@H](CC(C)C)C(=O)N[C@@H](CCC(=O)O)C(=O)N[C@@H](C)C(=O)NCC(=O)NCC(=O)O)C(C)C)C(=O)O			human, all renal groups	sc, 100 µg single dose		atrial fibrillation	2.7%
CO[C@H]1C[C@@H]2CC[C@@H](C)[C@@](O)(O2)C(=O)C(=O)N2CCCC[C@H]2C(=O)O[C@H]([C@H](C)C[C@@H]2CC[C@@H](OC(=O)NCCOCCOCCOCCOCCOCCOCCOCCOCCC(=O)N3CCc4cc(Cn5nc(-c6ccc7oc(N)nc7c6)c6c(N)ncnc65)ccc4C3)[C@H](OC)C2)C[C@@H](O)[C@H](C)/C=C(\C)[C@@H](O)[C@@H](OC)C(=O)[C@H](C)C[C@H](C)/C=C/C=C/C=C/1C		phase 1 dose escalation	advanced solid tumour patients	intravenous, 10 mg weekly, any grade		deaths due to TRAEs	0%
CCCC(CCC)NC(=O)c1ccc2c(c1)OCO2			Swiss albino CD-1 mice, male, bone marrow	intraperitoneal, 700 mg/kg, 48 h		micronucleated PCEs	0.1%
COc1cc(C2C3=C(COC3=O)N(CCO)c3cc4c(cc32)CCC4)cc(OC)c1OC (stereo not drawn)			female C57BL/6 mice	intraperitoneal, 400 mg/kg, 24 h, single dose, mean		body weight	20 g
CC(C)=CC1C(C(=O)OC(C#N)c2cccc(Oc3ccccc3)c2)C1(C)C (stereo not drawn)		item: CYP3A4	human, age 6 months			enzyme contribution to clearance	0.62%
O=c1ccc2ncc(=O)n3c2n1C[C@H]3CN1CCC(NCc2cc3c(cn2)OCCC3)CC1			healthy human volunteers, plasma	oral, 1500 mg, single dose alone, geometric mean		AUC(0-t)	19000 ng·h/mL
CC(=O)c1c(C)c2cnc(Nc3ccc(C4CCN(CCS(C)(=O)=O)CC4)cn3)nc2n(C2CCCC2)c1=O			HR+/HER2- advanced breast cancer patients	oral, 150 mg		patients with TRAE grade ≥3	66.7%
CC(C)c1cccc(N=Nc2ccc3[nH]cc(CCN(C)C)c3c2)c1		light irradiation	solution	with: light 530 nm		trans isomer at photostationary state	83%
CC(C)CC(=O)OC[C@H]1O[C@@](C#N)(c2ccc3c(N)ncnn23)[C@H](O)[C@@H]1O			monkey plasma	9 µM		fraction bound	0.683
CCCSc1ccc2nc(NC(=O)OC)[nH]c2c1			mouse, blood	oral, 50 mg/kg, tolerability, mean		haemoglobin	150 g/L
O=S(=O)(Nc1ccccc1)c1ccc(NC(=S)Nc2ccccc2)cc1		item: CK	female mouse, blood	oral, 20 mg/kg daily, 14 days		serum enzyme activity	3280 U/L
Cc1ccc(-c2cccc(CN3CCCC(NC(=O)c4c(C)noc4C)C3)c2)cc1Cl (stereo not drawn)	Vero-E6	CellTiter-Glo ATP		72 h, first round 5-point	baseline: DMSO 0%, hyamine -100%, more negative, more toxic	maximum response	-2.44%
O=S(=O)([O-])C(F)(F)C(F)(F)C(F)(F)C(F)(F)C(F)(F)C(F)(F)C(F)(F)C(F)(F)F.[K+]			male C57BL/6J mice	oral gavage, 1 mg/kg, 10 days, EtOH-fed or pair-fed		body weight	no effect
C[C@H]1CN(c2n[nH]c3nc(N[C@H]4CC[C@H](NS(=O)(=O)CCC(F)(F)F)CC4)ncc23)CCO1	CDC7 (Homo sapiens, UniProt O00311)	inhibitor, Kinobeads competition profiling		20 µM	baseline: vehicle	relative abundance	1.17
C=CCNc1c(O)cc2c(O)c1C[C@@H](C)C[C@H](OC)[C@H](O)[C@@H](C)/C=C(\C)[C@H](OC(N)=O)[C@@H](OC)/C=C\C=C(/C)C(=O)N2			unresectable or metastatic sarcoma	intravenous, 500 mg/m^2, grade 3-4 lab change		patients with AST increase	0%
C[C@]1(O)C[C@@](N)(c2ccc(-c3nc4n(c3-c3ccccc3)COc3ccncc3-4)cc2)C1			human, advanced or metastatic solid tumours	once daily, dose escalation total, any grade		patients with Anemia TEAE	33.3%
Oc1c(Cl)cc2c(c1Cl)Oc1cc(Cl)c(Cl)cc1O2		ultrafiltration	cow milk whey	100 nM nominal in whole milk		final permeate concentration	9.09 nM
